Results from different studies.
Protocols differ between the studies behind these lines. ± gives the spread as reported.
Target: Dual specificity mitogen-activated protein kinase kinase 6 (MAP2K6, Homo sapiens, UniProt P52564)
Sequence (P52564 1-334, as in one of the studies): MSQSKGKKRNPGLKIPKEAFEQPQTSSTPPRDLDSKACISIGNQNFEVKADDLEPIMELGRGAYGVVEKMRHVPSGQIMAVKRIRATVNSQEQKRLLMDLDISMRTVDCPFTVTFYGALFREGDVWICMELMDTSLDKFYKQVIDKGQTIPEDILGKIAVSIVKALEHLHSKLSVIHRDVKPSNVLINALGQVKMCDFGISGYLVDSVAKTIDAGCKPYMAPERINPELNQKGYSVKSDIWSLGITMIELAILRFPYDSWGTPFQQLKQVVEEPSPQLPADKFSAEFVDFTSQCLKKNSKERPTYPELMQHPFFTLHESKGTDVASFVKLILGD

C=CC(=O)N1CCC(COCC(=O)N2CCN(c3nc(-c4cnc(N)nc4C(F)F)nc(N4CCOC[C@@H]4C)n3)CC2)CC1 — remaining binding (KINOMEscan; 1 µM): 100%
O=C1NC(=O)/C(=C/c2ccc(-c3ccc(F)cc3O)o2)S1 — remaining activity (enzyme activity; 10 µM): 99%
C=CC(=O)N1CCC[C@@H](n2nc(-c3ccc(Oc4ccccc4)cc3)c3c(N)ncnc32)C1 — remaining activity (kinase activity, inhibitor, HotSpot radiometric; 100 nM, with: ATP 10 µM): 91.1 ± 0.1%
COc1cc(F)ccc1-c1ncnc(Nc2cccc(C[S@](C)(=N)=O)c2)n1 — remaining activity (kinase activity; 10 µM, with: 10 µM ATP): 120%
COc1ccc(F)cc1C(=O)NCc1ccc(-c2nn([C@@H](C)C(F)(F)F)c(N)c2C(N)=O)cc1 — remaining activity (kinase activity, inhibitor, HotSpot radiometric; 1000 nM, with: ATP at Km): 69.4 ± 4.7%
O=C(NC1CCC1)c1ccc2nc(-c3cccc(NS(=O)(=O)NCCN4CCCCC4)c3)cn2c1 — remaining activity (enzyme activity; 10 µM): 91%
CC/C(=N\NC(=O)NCc1cccc(O)c1)c1ccc(O)c(C)c1O — inhibition (kinase activity; 0.1 µM): 2.7%
C=CC(=O)N1CCC([C@@H]2CCNc3c(C(N)=O)c(-c4ccc(Oc5ccccc5)cc4)nn32)CC1 — remaining activity (kinase activity, inhibitor, HotSpot radiometric; 100 nM, with: ATP 10 µM): 99.6 ± 1.4%
CC[C@@H]1[C@H](F)C(=O)N[C@@H]1COc1nccc2cc(C(N)=O)c(OC)cc12 — inhibition (ATP-site probe binding, ActivX profiling; THP-1 cell lysate; 0.04 mM, Lys1 site): -4.9%

Excerpt of the above:
O=C1NC(=O)/C(=C/c2ccc(-c3ccc(F)cc3O)o2)S1 — remaining activity (enzyme activity; 10 µM): 99%
